Earlier results as cited in several papers.

Under activity class, COc1ccccc1N1CCN(CCCNc2cc(=O)n(C)c(=O)n2C)CC1.Cl is recorded as “inactive” (Toxoplasma gondii; parasite growth; concentration not given, drug repurposing screen).
For CC(C)CC(=O)N1CCc2nc(-c3ccc(Br)cc3)nc(N(C)Cc3ccccc3)c2C1, the Ki was 522 nM (human PDE10A; biochemical).
Under “stability at room temperature”, CN[C@@H](C)C(=O)N[C@H]1CN(S(=O)(=O)c2cccc(S(=O)(=O)N3CC[C@H]4CC[C@@H](C(=O)NC(c5ccccc5)c5ccccc5)N4C(=O)[C@@H](NC(=O)[C@H](C)NC)C3)c2)CC[C@H]2CC[C@@H](C(=O)NC(c3ccccc3)c3ccccc3)N2C1=O is recorded as 8 h (normal saline; up to 0.3 mg/mL).
Cc1cc(C)c(-n2ccn3nc(-c4cccnc4)cc23)cc1NC(=O)c1cc(C#N)cc(S(F)(F)(F)(F)F)c1 gave a Kd of 40 nM (LYN; KINOMEscan).
Under activity class, CC1(C)C[C@@H]1C(=O)N/C(=C\CCCCSC[C@H](N)C(=O)O)C(=O)[O-].[Na+] is recorded as “inactive” (Toxoplasma gondii; parasite growth; concentration not given, published screen).
For CC(=O)N1CCC(c2ccc(C(=O)NC3=NCCN3)cc2C(F)(F)F)CC1, the IC50 was > 10000 nM (SLC9A1; biochemical activity).
Nc1ccn([C@@H]2O[C@H](CO)[C@@H](O)C2(F)F)c(=O)n1 gave a pneumonia incidence of 1% (metastatic pancreatic cancer patients; dose not given).
CN(C)[C@H]1CCN(c2cc(-c3ccccc3)nc3ccnn23)C1 gave an EC50 of > 100000 nM (MRGPRX2; cellular activity).
CCCCCCCCNC(C)C(O)c1ccc(SC(C)C)cc1 (stereo not drawn) — result for “log2 fold change”: 1.21 (MCF7; microarray, measured: ZNF292 mRNA; concentration not given; baseline: DMSO).

A few entries again:
Nc1ccn([C@@H]2O[C@H](CO)[C@@H](O)C2(F)F)c(=O)n1 gave a pneumonia incidence of 1% (metastatic pancreatic cancer patients; dose not given).
